Published values from different studies.
“And” joins repeats or separate records; there may be more than shown. Numbers after ± are the reported error.

SMILES | cell line | test | setting | how to read | quantity | result
CC(=O)Nc1cccc(-n2c(=O)n(C3CC3)c(=O)c3c(Nc4ccc(I)cc4F)n(C)c(=O)c(C)c32)c1 | NCI-H2087 (BRAF L597V) |  | 100.00 nM | reference: DMSO | fractional effect | 0.642
NC(=O)c1cccc(N)c1 | HBL-1 |  | 0.1 µM, 120 h |  | viability | 98.8%
O=C(CCc1cc(C(=O)c2ccc(OC3CCCC3)cc2O)ccc1OCc1ccc2c(O)noc2c1)NCCOCCOCCOCCOCCOCCOCCNc1cccc2c1C(=O)N(C1CCC(=O)NC1=O)C2=O (centres unmarked) | FaDu cancer stem cells | tumorsphere formation |  |  | ED50 | 8.5 µM
CCOc1nc(NC(=O)Cc2cc(OC)ccc2OC)cc(N)c1C#N | HeLa expressing Ub(G76V)-GFP | Ub(G76V)-GFP degradation, cycloheximide chase | 12 µM |  | inhibition | 29%
CCn1cc(-c2cc(Cn3ccnc3)cc3c2CCN([C@H](c2cc(OC)ccn2)C2CC2)C3=O)c(C(F)(F)F)n1 | LK-2 | cell growth, inhibitor | 120 h |  | EC50 | > 30 µM
Cc1cnc(Nc2ccc(OCCN3CCCC3)cc2)nc1Nc1cccc(S(=O)(=O)NC(C)(C)C)c1 | iCell cardiomyocytes hiPSC-derived | impedance | concentration not given, 2 h | reference: vehicle | beat rate | 107%
Nc1ncnc2c1ncn2[C@@H]1O[C@H](CO)[C@@H](O)[C@H]1O | activated human T cells |  | 31.6 µM | higher = more TNF | TNF production | 2670 a.u. and 2260 a.u. and 2410 a.u.
Cc1ccc2c(c1)C(=O)[C@]1(O)CCN(c3ccc4nc(C)ccc4c3)C1=N2.Cl | human GBM lines |  | 5 µM, 48 h |  | multinucleated cells | 12 to 25%
CC1(C)CC[C@]2(C(=O)O)CC[C@]3(C)C(=CC[C@@H]4[C@@]5(C)C[C@@H](O)[C@H](OC(=O)/C=C/c6ccc(O)cc6)C(C)(C)[C@@H]5CC[C@]43C)[C@@H]2C1 (relative stereo) | N2a expressing NotchΔE-myc | gamma-secretase Notch cleavage, Western blot | concentration not given, 24 h |  | NICD production | no effect
Cc1nc(NC(=O)N2CCC[C@H]2C(N)=O)sc1-c1ccnc(C(C)(C)C(F)(F)F)c1 | A2058 | western blot, refers to: phospho-S6 Ser235/Ser236 | 2 h |  | IC50 | > 3 µM
CC[C@@H]1C(=O)N(C)c2cnc(Nc3ccc(C(=O)N[C@H]4CC[C@H](N5CCN(CC6CC6)CC5)CC4)cc3OC)nc2N1C(C)C | BT-12 | cell viability, MTT | 10 µM, 72 h |  | inhibition | 89.2%
COC(=O)/C=C/C(=O)N(O)CCCCNCc1ccc(COC(=O)Nc2cccc3ccccc23)cc1 | HBL-1 |  | 1 µM, 120 h |  | viability | 113%
Cc1ccccc1Cn1cc(-c2cccc(NC(=O)Nc3ccc(F)cc3)c2)nn1 | Huh-7 | RT-PCR, refers to: H2AX | 10 µM, 72 h |  | mRNA level | decreased
C=CC1=C(C)c2cc3[n-]c(cc4nc(cc5[n-]c(cc1n2)c(C)c5C=C)C(C)=C4CCC(=O)O)c(CCC(=O)O)c3C.[Zn+2] | SH-SY5Y | RNA-seq, refers to: TMC6 mRNA | 5 µM, 5 h | reference: untreated cells | fold change | 1.58
Cn1cc(/C=C/C(=O)c2cccc(F)c2)cc1/C=C/C(=O)NO | HBL-1 |  | 1 µM, 120 h |  | viability | 108%
CC(C)n1cnc2c(Nc3cccc(Cl)c3)nc(NCCO)nc21 | HeLa expressing Ub(G76V)-GFP | Ub(G76V)-GFP degradation, cycloheximide chase | 12 µM |  | inhibition | 6%
CCCCCCCCOC(=O)C(=O)CCC(=O)O | HBL-1 |  | 0.1 µM, 120 h |  | viability | 117%
CC(C)C[C@@H](C=O)NC(=O)[C@H](CC(C)C)NC(=O)[C@H](CC(C)C)NC(=O)OCc1ccccc1 | HeLa expressing Ub(G76V)-GFP | Ub(G76V)-GFP degradation, cycloheximide chase | 0.625 µM | reference: DMSO | remaining activity | 26.4%
Cc1cc(Nc2ncc(Cl)c(Nc3ccccc3S(=O)(=O)C(C)C)n2)c(OC(C)C)cc1C1CCNCC1 | CLB-GE | phosphoproteomics LC-MS/MS, refers to: GNAS phosphorylation | 200 nM, 60 min | reference: untreated | log2 fold change | -2.1

SMILES | cell line | test | setting | how to read | quantity | result
COc1cc2ncnc(Nc3ccc(O)c(Br)c3)c2cc1OC | HeLa expressing Ub(G76V)-GFP | Ub(G76V)-GFP degradation, inhibitor, cycloheximide chase | 12 µM |  | inhibition | 27%
Cc1cccc(-c2[nH]c(CNc3ccccc3F)nc2-c2ccc3ncnn3c2)n1 | bone marrow CD138+ myeloma cells | XTT | 2 µM, phenol red-free RPMI |  | viability | 7%
C=Cc1c2[n-]c(c1C)/C=c1\[n-]/c(c(C)c1C=C)=C\c1[n-]c(c(CCC(=O)O)c1C)/C=c1\[n-]c(c(C)c1CCC(=O)O)=C2.[Sn+4] | SH-SY5Y | RNA-seq, refers to: TNS1 mRNA | 5 µM, 5 h | reference: untreated cells | fold change | 1.85
c1ccc(CNc2nc(NCc3ccccc3)c3ccccc3n2)cc1 | BT-12 | cell viability, MTT | 10 µM, 72 h |  | inhibition | 95.3%
Cn1cc(Nc2nccc(-c3ccc4c(c3)CN(C3COC3)CC[C@H]4NC(=O)c3cn(C(C)(C)C)nn3)n2)cn1 | mouse splenic B cells | refers to: GP6 signalling pathway | 30 mg/kg, IgD-activated in vivo | reference: vehicle, direction not given | pathway activation z-score | 3.36
COc1cc2ncnc(Nc3cccc(Cl)c3)c2cc1OC | HeLa expressing Ub(G76V)-GFP | Ub(G76V)-GFP degradation, cycloheximide chase | 12 µM |  | inhibition | 16%
CCC/N=C1\S/C(=C\c2ccc(OC[C@H](O)CO)c(Cl)c2)C(=O)N1c1ccccc1C | human primary astrocytes | single-cell RNA-seq, refers to: TAGLN mRNA | concentration not given, 24 h, added: cytokine stimulation | reference: cytokine alone | log2 fold change | 0.634
CCCCCCCCCCCCCCCC[N+](C)(C)C | BT-12 | cell viability, MTT | 10 µM, 72 h |  | inhibition | 91.6%
CC(Nc1nc(N2CCCC2)nc2ccccc12)c1ccccc1 (centres unmarked) | HeLa Kyoto | RelA nuclear import, high content imaging | 0.05 µM, 3 h, added: 1 µM PMA, 60 min |  | cells with nuclear RelA | 79.2% and 89.9%
O=c1[nH]nc(OCCCc2ccc(Cl)cc2)c(NCc2cccnc2)c1Br | HEK-293T | RNA-seq GSEA, refers to: HALLMARK_COMPLEMENT | concentration not given | direction not given | normalized enrichment score | -0.977
CCn1cc(-c2cc(Cn3ccoc3=N)cc3c2CCN([C@@H](C)c2cc(OC)ccn2)C3=O)c(C(F)(F)F)n1 | EOL1 | cell growth, inhibitor | 120 h |  | EC50 | 0.126 µM
CC1(C)CN(CCCCC(=O)N[C@@H](CCCCNC(=O)CCCCCCC(=O)NCCCC[C@H](NC(=O)N[C@@H](CCC(=O)O)C(=O)O)C(=O)O)C(=O)O)CC[N]2CC(C)(C)[S][Tc]2(=[O])[S]1 (some centres unmarked) [technetium-99m labelled] | LNCaP |  | 25 nM, 1 h, 4 °C |  | surface-bound activity | 1.95 ± 0.93 %AD/mg protein
CCN(CCO)CCCC(C)Nc1ccnc2cc(Cl)ccc12 (centres unmarked) | human PBMC | qRT-PCR, refers to: IFI6 mRNA | 1000 nM, added: ssRNA |  | inhibition | 27 ± 23%
O=c1c(-c2ccc(F)cc2)c(-c2ccncc2)[nH]n1-c1ccc(Cl)cc1 | HeLa expressing Ub(G76V)-GFP | Ub(G76V)-GFP degradation, cycloheximide chase | 12 µM |  | inhibition | 53%
CCCCc1nc2cc(/C=C/C(=O)NO)ccc2n1CCN(CC)CC | HBL-1 |  | 0.1 µM, 120 h |  | viability | 51.4%
COc1cc(/C=C/C(=O)N2CCC=CC2=O)cc(OC)c1OC | MDA-MB-468 | qRT-PCR, refers to: BACE2 | 30 µM, 6 h | reference: time zero | mRNA level | 75.8 ± 6.6%
CC(C)C[C@H](NC(=O)[C@H](CCc1ccccc1)NC(=O)CN1CCOCC1)C(=O)N[C@@H](Cc1ccccc1)C(=O)N[C@@H](CC(C)C)C(=O)[C@@]1(C)CO1 | BT-12 | cell viability, MTT | 10 µM, 72 h |  | inhibition | 93.6%
c1ccc2[nH]ccc2c1 | HCT-8 | RNA-seq, refers to: YPEL1 | concentration not given |  | mRNA level, LS mean | 15.2 counts per million
CC(=O)[C@]1(O)Cc2c(O)c3c(c(O)c2[C@@H](O[C@H]2C[C@H](N)[C@H](O)[C@H](C)O2)C1)C(=O)c1ccccc1C3=O | BT-12 | cell viability, MTT | 10 µM, 72 h |  | inhibition | 93.5%

SMILES | cell line | test | setting | how to read | quantity | result
O=C(/C=C/C=C/C=C/C1CCCCC1)NC1=C[C@@](O)(/C=C/C=C/C=C/C(=O)NC2=C(O)CCC2=O)[C@@H]2O[C@@H]2C1=O | LXF-289 | cell growth, CellTiter-Glo | 78 h |  | GI50 | 15.6 µM
O=C(O)CC[C@H](NC(=O)N[C@@H](CCCCNC(=O)CCCCCCC(=O)NCCCC[C@@H](NC(=O)[C@H](CCC(=O)O)NC(=O)[C@H](CCC(=O)O)NC(=O)CCC(=O)NCCCN1CC[S][Tc]2(=[O])[S]CC[N]2CC1)C(=O)O)C(=O)O)C(=O)O (some centres unmarked) [technetium-99m labelled] | LNCaP |  | 25 nM, 1 h, 37 °C |  | surface-bound activity | 4.54 ± 0.15 %AD/mg protein
Cc1cc(Nc2ccc(NC(=O)c3ccc(Nc4ccnc5ccccc45)cc3)cc2)nc(N)n1 | HBL-1 |  | 0.5 µM, 120 h |  | viability | 0.453%
CC/C(=N\NC(=O)NCc1cccc(O)c1)c1ccc(O)c(C)c1O | SK-OV-3 | gene expression, microarray, refers to: CPA4 | 10 µM, 24 h | reference: DMSO | log ratio | 4.6
C=CC(=O)N1CCCN(C(=O)c2cc(Sc3cnc(NC(=O)C4CC4)s3)c(C)cc2OC)C[C@H]1C | human CD4 T cells | flow cytometry | concentration not given, added: anti-CD3/CD28 crosslinking |  | S6 phosphorylation | inhibited
COC(=O)c1sc(-c2cccs2)cc1NC(=O)/C=C/C(=O)O | 3T3-L1 adipocytes | lipolysis | concentration not given, 24 h, added: 20 µM forskolin or basal |  | fatty acid efflux | decreased
COc1cnc2cccc(N3CCc4c(cc(Cn5ccnc5C)cc4-c4cn(C)nc4C(F)(F)F)C3=O)c2c1 | ChaGo-K-1 | cell growth, inhibitor | 120 h |  | EC50 | > 30 µM
Cn1cc(-c2ccc(-c3cncc(Cl)c3N3CCC4(CCNC4=O)CC3)cc2)cn1 | COLO 205 | microarray, refers to: FSCN1 | concentration not given, 2 h, gene set Fascin | reference: untreated cells | fold change in expression | 2.06
c1ccc(-c2cnc(Nc3ccc(OCCN4CCCC4)cc3)s2)cc1 | HeLa expressing Ub(G76V)-GFP | Ub(G76V)-GFP degradation, inhibitor, cycloheximide chase | 12 µM |  | inhibition | 13%
CC[C@]1(O)C[C@H]2CN(CCc3c([nH]c4ccccc34)[C@@](C(=O)OC)(c3cc4c(cc3OC)N(C=O)[C@H]3[C@@](O)(C(=O)OC)[C@H](OC(C)=O)[C@]5(CC)C=CCN6CC[C@]43[C@@H]65)C2)C1 | BT-12 | cell viability, MTT | 10 µM, 72 h |  | inhibition | 88.4%
O=C(C[C@@H](C(F)F)n1ccc(F)n1)N1CCC(O)(Cn2cnc3c(cnn3-c3ccc(F)cc3)c2=O)CC1 | CHP-212 resistant cells (pooled) | PI flow cytometry | 1 µM, 24 h |  | cells in G1 phase | 77.2% and 73.8% and 76%
O=C(NCc1ccccc1)c1c(/N=C/c2c(O)ccc3ccccc23)sc2c1CCCC2 | HBL-1 |  | 0.1 µM, 120 h |  | viability | 117%
COc1ccc(C[C@H](N)C(=O)N[C@H]2[C@@H](O)[C@H](n3cnc4c(N(C)C)ncnc43)O[C@@H]2CO)cc1.Cl.Cl | BT-12 | cell viability, MTT | 10 µM, 72 h |  | inhibition | 94.7%
CC[S+]([O-])c1nc(-c2ccccc2)cc(C(F)(F)F)n1 (centres unmarked) | HeLa Kyoto | RelA nuclear import, high content imaging | 50 µM, 3 h, added: 1 µM PMA, 60 min |  | cells with nuclear RelA | 8.12% and 10.7%
CC/C(=N\NC(=O)C(C)Nc1ccccc1)c1ccc(O)c(C)c1O (centres unmarked) | SK-OV-3 | Western blot, refers to: LATS | 10 µM, 3 h, 3D gellan gum culture, unit not given | reference: β-actin | protein level | 0.75 ± 0.45
O=C1c2ccccc2-c2nc3nnnn3nc21 | HeLa expressing Ub(G76V)-GFP | Ub(G76V)-GFP degradation, inhibitor, cycloheximide chase | 12 µM |  | inhibition | 86%
COc1cc2c(NC3CCN(C(C)C)CC3)nc(N3CCC(F)(F)CC3)nc2cc1OCCCN1CCCC1 | HBL-1 |  | 0.1 µM, 120 h |  | viability | 112%
CCCCc1oc2ccc(NS(C)(=O)=O)cc2c1C(=O)c1ccc(OCCCN(CCCC)CCCC)cc1 | human embryonic stem cell aggregates | mRNA level, microarray, refers to: EYA1 | 0.5 µM, 120 h | reference: untreated, down-regulated | fold change | 5.4 fold
